Published values collected from several papers.
Numbered parts are unrelated; each lists some results of a single study. ± gives the spread as reported.

Series 1
Target: HLA class I histocompatibility antigen, A alpha chain, allele A*02:01 (Homo sapiens, UniProt P04439)
Effect on: binding
Action: competitor
Quantity: IC50
SMILES = CC[C@H](C)[C@H](NC(=O)[C@@H](NC(=O)[C@@H](N)CCCNC(=N)N)[C@@H](C)O)C(=O)N[C@@H](CCCCN)C(=O)N[C@H](C(=O)N[C@@H](Cc1ccccc1)C(=O)N[C@H](C(=O)N[C@H](C(=O)N[C@H](C(=O)O)C(C)C)[C@@H](C)O)[C@@H](C)O)C(C)C; value = 0.554 µM
SMILES = CC(C)C[C@H](NC(=O)[C@H](CO)NC(=O)[C@H](CC(C)C)NC(=O)[C@@H]1CCCN1C(=O)[C@H](CO)NC(=O)CNC(=O)[C@H](CC(C)C)NC(=O)[C@@H](N)CCCNC(=N)N)C(=O)O; value = 16.5 µM
SMILES = CC(C)C[C@H](NC(=O)[C@@H](NC(=O)[C@H](CCC(=O)O)NC(=O)[C@H](CC(N)=O)NC(=O)[C@H](CC(C)C)NC(=O)[C@H](CC(=O)O)NC(=O)[C@H](CC(N)=O)NC(=O)[C@H](CC(C)C)NC(=O)[C@@H](N)[C@@H](C)O)[C@@H](C)O)C(=O)O; value = 0.531 µM

Further values, each from its own experiment
Substance = MLEPFQILSISSFILSALHFMAWTIGALNQIKR (BM2 transmembrane domain H27A (Influenza B virus)); test = solid-state NMR, refers to: His19; system = peptide, VM+ membrane pellets; conditions = membrane-bound tetramer, no drug, second protonation; quantity = pKa; value = 5.2
Substance = main protease S147A (SARS-CoV-2); tested on = itself; test = native MS; conditions = 5 µM, apo; quantity = dimer fraction; value = 7 ± 1%
Substance = O=c1[nH]cnc2c([C@@H]3N[C@H](CO)[C@@H](O)[C@H]3O)c[nH]c12; tested on = SARS-CoV-2; system = Vero C1008, Omicron BA.5; conditions = 48 h; quantity = EC90; value = 2 ± 0.069 µM
Substance = main protease L115M (SARS-CoV-2); tested on = itself; test = native MS; conditions = 5 µM, apo; quantity = dimer fraction; value = 15 ± 1%
Substance = 3CLpro G11S (SARS-CoV-2); tested on = itself; test = FRET peptide cleavage; conditions = 400 nM; quantity = maximum reaction velocity; value = 0.04 µM/s

Excerpt of the above (further values, each from its own experiment):
Substance = main protease L115M (SARS-CoV-2); tested on = itself; test = native MS; conditions = 5 µM, apo; quantity = dimer fraction; value = 15 ± 1%
